Measured values pooled from the literature.
Each numbered part is a random draw from the data of one study; scales do not carry over between parts.

Sample 1
Target: RNA binding protein fox-1 homolog 2, RRM domain, GST-SBP tag (RBFOX2, Homo sapiens, UniProt O43251-10, residues 100-194)
Technique: RNA Bind-n-Seq
Form: RNA
Sample: in vitro
Concentration: 365 nM
Setting: natural RNA segment, single round, ends assumed
Baseline: no-protein control
Direction: higher = stronger binding
Constant ends, left off below: GGGAGUUCUACAGUCCGACGAUC … UGGAAUUCUCGGGUGCCAA
Target sequence (chain): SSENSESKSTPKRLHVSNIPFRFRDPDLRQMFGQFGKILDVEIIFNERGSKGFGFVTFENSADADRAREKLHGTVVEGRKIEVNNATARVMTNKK
Strand | RBNS enrichment (R)
CUAAGGUCAGAAGGGUUAACUCAACUGUCUAUUGUCACAUGAUGAAUAAAUAGAUGAAGUGAGAUACAAAGCUGGGUUUGAUUCAAAGCCCUUACUUUCCUAAUUAAACU | 0.335
AUUUUAUCCCUCACCUGUAGCAGCCAGUCCCGUUUCAUUUAGUCAUGUGACCACUCUGUCUUGUGUUUCCACAGCCUGCAAGUCAGUCCAGGAUGCUAACAUCUAAAAAU | 0.496
UGUAUAUGUGUGUGUAUGUGUAGGGGCAGCCCCUAUCUCUGGCUCCUUUUCCACCCUUCUCCCCAGUGCCUUCCUCGUCCUGGUGGAGCUGAGGCCUACUCCUCCCCAGU | 2.48
UUACCAUUACAUAGUAAUUUUGAUUCUGAAUUUCACAUUAAAUUAUUUGAGUUUAUACAGACCUAAAUUUUAAAAUCUGUACAUAUAUUAUUUUGAUGUAUUAAGAUGAA | 0.413
CACCUUGUUCAGUGCCUGUCUAACAUGGCUAGCUACAAGGCAAUGUUGUCUCCUCCUAAUGUCCACCUCAGUGACGAGGUUCCACACUGUCUCCUCACCUCUUGUCACGG | 0.433
GAGGUGUAGACUCAGCCUCACUCUGUACAAGAGCCAGGUGAGAAUUUCAAGGAUUAUCGACUUCAUAUUGCACAUUAAAGUUACAAAUUAAAGUGGCUUGGUCAAGAAUG | 1.07
UGUCAUCUCUGAAAAGACUGGGGGAUAUGAAAUCUUCCCCCUACCCCACUUAAUGCGUUGGAUAUGAUUUUUCAAAGAAUGCUUCAUGCCCAAAAUACCAGCCUGUUUAG | 1.43
CUCGCCAGCCUUCCCGUCCUUCAGUUCAACGACAUCUUUGGAGUGUUUUUGUUUUCUCUUCCAAGGGCCGUCCCGUUGUGUUAGGAAGGGUGAGUGGCUGGUUCCAGGGU | 0.415

Sample 2
Target: RING finger protein unkempt homolog, zinc fingers 1-6, GST-SBP tag (UNK, Homo sapiens, UniProt Q9C0B0, residues 30-357)
UniProt Q9C0B0, sequence (30-357, looked up): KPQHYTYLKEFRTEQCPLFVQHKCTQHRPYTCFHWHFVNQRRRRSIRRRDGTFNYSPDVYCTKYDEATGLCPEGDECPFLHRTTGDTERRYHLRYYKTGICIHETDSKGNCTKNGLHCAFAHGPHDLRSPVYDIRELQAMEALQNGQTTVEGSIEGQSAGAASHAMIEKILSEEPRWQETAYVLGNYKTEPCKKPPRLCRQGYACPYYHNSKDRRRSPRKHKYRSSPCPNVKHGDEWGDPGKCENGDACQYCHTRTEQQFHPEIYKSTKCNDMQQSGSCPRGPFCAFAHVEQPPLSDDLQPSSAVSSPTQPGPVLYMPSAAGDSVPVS
Technique: RNA Bind-n-Seq
Form: RNA
Sample: in vitro
Concentration: not given
Setting: RNA with constant flanks, human-mouse chimeric sites, ends assumed
Baseline: input RNA pool
Direction: higher = stronger binding
Constant ends, left off below: GGGAGUUCUACAGUCCGACGAUC … CAACAGAGGAUUGAGCAUCA
Strand | bound/input enrichment
CAGCUGCAGACAGAGAAGGAUGAGAAGGAGCUGUAUAAGGUACAUUUGAAGAAUACAGAAAUAGAAAAUACGAAGCUUGUGUCAGAGGUCCAGACUUUAAAGAAUUUAGAUGGAAACAAA | 3.71 ratio
CUCGGCACCGGCACGCUUUACAUCGCGGAGAGCCGCCUGUCUUGGUUAGAUGGCUCUGGAUUAGGAUUCUCACUGGAAUACCCCACCAUUAGUUUACAUGCGGUGUCCAGGGAUCCAAAC | 0.433 ratio
UUACCCGAGAACGAGGAUGAGCUGGAGAGCACCAACAGGCGCUACACCAAGAGGGACUGCAGCACUUUCCUCAGAACUAGUGAGACGGGCAUUGUGGACCAGGUCAUGGUCACUCUCAAC | 0.111 ratio
AGGAGGAGGUUAAAGGGUGAAAAUGGGGUGGAAGACUGUGUCAUGGCUCUGGAGACAUUGUUUAGUGUCCUGCUUUCUCUGUGCAGACUGAUGGCCCCUUACACGCCCUUUCUGACUGAG | 0.0869 ratio
GGGGAGAAACCUUAUGAGUGUGUGCAGUGUGGGAAAUCCUACAGUCAGAGCUCAAACCUUUUUAGACAUCAGAGACGACACAAUGCAGAAAAACUUUUGAAUGUUGUGAAGGUUUAAGAA | 0.255 ratio
ACUCUUGACUCUUUCCAUCCUCUUCCUUUCCCUCUUGAUAUUCAAGGCCAUGAAUCCCAAAAUAACAAUCUAUCUUACUAGCACCCAAACAGAGGUGGAAUAAAUCCACCCCAGUGUCUC | 0.981 ratio
AAAGAGAAACUAAAGCAACUAAUAGAGAAGAGGAUUGGCAAAGAGAAUUUCAUAGAGAAACUAGGAUUUAUUAGCAAAACAUGAGUUUAUUCCAGAGGCAUCUCAGAACCCCAGCCAAAC | 10.2 ratio
AGGAGGAGGUUAAAGGGUGAGAGUGGGGUGGAAGACUGUGUCAUGGCUCUGGAGACACUGUUCAGUGUCCUGCUUUCUCUGUGCAGACUUAUGGCUCCUUACACGCCUUUUCUCACUGAG | 0.0986 ratio

Sample 3
Target: Histone acetyltransferase KAT6A, both winged helices, GST fusion (KAT6A, Homo sapiens, UniProt Q92794, residues 1-181)
Technique: protein binding microarray
Form: double-stranded DNA, one strand shown
Sample: in vitro
Concentration: not given
Setting: 8-mer, flanks averaged, mean of 2 arrays, mostly near background
Baseline: not given
Direction: higher = stronger binding
Construct (chain): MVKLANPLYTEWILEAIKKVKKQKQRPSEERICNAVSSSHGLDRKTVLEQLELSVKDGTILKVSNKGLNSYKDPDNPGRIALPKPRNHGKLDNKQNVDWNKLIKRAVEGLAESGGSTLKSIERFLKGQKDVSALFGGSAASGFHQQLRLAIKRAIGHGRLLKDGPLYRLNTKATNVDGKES
Strand | E-score
TATATGGA | -0.205
AGTTCCTC | -0.0216
AAAGACTA | -0.0752
AACCCTAG | -0.184
TCGTGTCA | -0.0178
ATAGCCAA | -0.139
CTATATTA | -0.0402
CATCGTCG | 0.081
TCGCCTCA | -0.0456
ACATGTGC | 0.0421
CCTGTGGC | -0.176
AGGTGTTG | -0.0139
AGTATCAA | -0.065
CTAGGTTC | -0.0823
CGCTTCTA | 0.117
GTAACTAA | -0.0382
CCGCGTGC | 0.277
AGATGATC | -0.0333
CGGCAAGA | 0.216
ACATTATG | 0.074
ACGCCTCA | -0.00893

Sample 4
Target: Phosphate system positive regulatory protein PHO4, full length, GST-tagged (PHO4, Saccharomyces cerevisiae, UniProt P07270, residues 1-312)
Technique: competition protein-binding microarray
Form: double-stranded DNA, one strand shown
Sample: in vitro
Concentration: 2 µM
Setting: whole 60-bp probe, lowest competitor level
Together with: Cbf1 competitor, 0.05 µM
Direction: higher = stronger binding
Constant ends, left off below: … GTCTTGATTCGCTTGACGCTGCTG
Target sequence (chain): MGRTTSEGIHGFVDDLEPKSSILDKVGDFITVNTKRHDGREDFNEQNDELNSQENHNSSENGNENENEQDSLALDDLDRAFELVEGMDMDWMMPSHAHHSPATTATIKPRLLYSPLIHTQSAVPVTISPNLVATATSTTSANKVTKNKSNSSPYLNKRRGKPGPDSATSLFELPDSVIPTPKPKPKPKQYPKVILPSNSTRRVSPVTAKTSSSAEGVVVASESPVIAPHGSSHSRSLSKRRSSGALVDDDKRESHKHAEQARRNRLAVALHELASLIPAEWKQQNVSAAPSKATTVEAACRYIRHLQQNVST
Strand | fluorescence intensity
AAGCGCAGGAGGAGCAGCGTGGCGCAACCTTAAGGC | 5970 a.u.
CGTTATATTTCCGACGTCGTGCGATAGTTTCTGCGC | 9660 a.u.
AAAGCGGTAATTTTTCACGTGATATCAAATATCTAT | 12000 a.u.
CGTCCTAGTGATTTTCACGTGCGTTCCATGAGGAAG | 13600 a.u.
AAAGCGGTAATTTTTCACGTGTCTTCACATATCTAT | 13300 a.u.
ATTGAAGGTGTAGAGGCCGTGACGAATTGATGTGGT | 4890 a.u.
CTTTCCCGATCTTGAGTAGTGGGTGTAGCACATTTG | 5530 a.u.
CGTCCTAGTGATTTTCACGTGCTCTCCATGAGGAAG | 14400 a.u.
TTCTTACTAAAATGTAGCGTGCATCCTTATAGGGCT | 8230 a.u.
AAAGCGGTAATTTTTCACGTGTCGTCAAATATCTAT | 13200 a.u.
CGTCCTAGTGATTGTACTGTGGGTGCCATGAGGAAG | 5850 a.u.
TCCCGTACATCGATGTACGTGATGGGTTTTTCTCAT | 5130 a.u.
AAAGCGGTAATTTGCACTGTGGGTGCAGATATCTAT | 4900 a.u.
AGAGAATCGGGCATATTCGTGCGGATTCCTTGTCCG | 5860 a.u.
TGCGCAACAACTTGGTTTGTGGGTGTATGTCTAGAA | 4440 a.u.
TCCACCAGTGGGCCCAGTGTGACGGCCACACTGGAC | 4280 a.u.
AGAGGTATTACCCATCACGTGATGGTTATTTCTTTT | 12900 a.u.
CGTCCTAGTGATTTTCACGTGAGTTCCATGAGGAAG | 10100 a.u.
GTAGTTCCCAGTCTTTTCGTGATGGTCAACTTAACG | 3980 a.u.
